Experimental data pooled from the literature.
Each numbered part is a random draw from the data of one study; scales do not carry over between parts.
Sequence of UniProt O15111 (whole entry, looked up): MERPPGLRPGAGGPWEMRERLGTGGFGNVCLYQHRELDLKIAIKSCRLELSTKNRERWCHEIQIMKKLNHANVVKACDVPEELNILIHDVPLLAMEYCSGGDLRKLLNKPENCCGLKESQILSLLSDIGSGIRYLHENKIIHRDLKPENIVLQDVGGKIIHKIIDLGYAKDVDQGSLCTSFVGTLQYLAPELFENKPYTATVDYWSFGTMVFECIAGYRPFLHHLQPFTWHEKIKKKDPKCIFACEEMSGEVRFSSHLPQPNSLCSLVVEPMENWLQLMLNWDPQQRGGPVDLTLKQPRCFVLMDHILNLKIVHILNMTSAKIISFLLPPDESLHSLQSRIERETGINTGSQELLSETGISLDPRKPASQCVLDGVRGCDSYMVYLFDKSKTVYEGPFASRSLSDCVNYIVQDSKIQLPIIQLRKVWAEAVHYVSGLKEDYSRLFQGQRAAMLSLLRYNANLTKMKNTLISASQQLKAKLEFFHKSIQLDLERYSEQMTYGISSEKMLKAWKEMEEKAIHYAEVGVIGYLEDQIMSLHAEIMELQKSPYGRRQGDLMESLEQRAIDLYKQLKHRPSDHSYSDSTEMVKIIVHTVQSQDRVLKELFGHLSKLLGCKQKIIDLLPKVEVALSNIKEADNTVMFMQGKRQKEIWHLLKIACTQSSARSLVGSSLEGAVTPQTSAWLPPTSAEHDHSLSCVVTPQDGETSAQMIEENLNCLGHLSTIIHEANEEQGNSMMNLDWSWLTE

Block 1 — technique: protein-binding microarray; form: double-stranded DNA, one strand shown; sample: in vitro; concentration: 2540 nM top; setting: 60-bp whole probe; added: salmon DNA 0.4 mg/ml; relative to: random background probes; direction: higher = stronger binding; shared flanks, not repeated: GCCTAGCAC … GTCTTGATTCGCTTGACGCTGCTG
Target: Interferon regulatory factor 3, full length, phosphomimetic (IRF3, Homo sapiens, UniProt Q14653, residues 1-427, S386D/S396D/S398D/S402D/T404D/S405D)
Target sequence (chain): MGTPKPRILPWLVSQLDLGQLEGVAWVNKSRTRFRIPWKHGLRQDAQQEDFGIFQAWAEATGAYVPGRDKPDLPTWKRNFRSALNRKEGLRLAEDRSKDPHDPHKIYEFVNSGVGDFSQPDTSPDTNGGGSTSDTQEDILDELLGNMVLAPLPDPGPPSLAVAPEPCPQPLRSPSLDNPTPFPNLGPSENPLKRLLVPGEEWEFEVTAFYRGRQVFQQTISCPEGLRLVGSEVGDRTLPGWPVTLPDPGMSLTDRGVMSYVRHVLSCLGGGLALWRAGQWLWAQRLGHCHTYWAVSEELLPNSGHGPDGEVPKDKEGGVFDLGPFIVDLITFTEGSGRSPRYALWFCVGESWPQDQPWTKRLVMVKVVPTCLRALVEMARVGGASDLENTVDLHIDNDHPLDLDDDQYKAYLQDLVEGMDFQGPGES
`GACGGTATCCGACTGGGGACGTGCTAG` — result for “fitted relative affinity”: 2.06 z-score.
`ATAATTTTTCTAGTGGTTGCGTGCTAG`: “fitted relative affinity” 0.283 z-score.
For `TTCGGACTGGGTATCGGTTAGTGCTAG`, “fitted relative affinity” read 0.438 z-score.
Under “fitted relative affinity”, `TCCCCTCTCATTCCAATTCTGTGCTAG` is recorded as 1.29 z-score.
`TCACTAGTGTTTTTCTCACTGTGCTAG` — result for “fitted relative affinity”: 0.102 z-score.
For `TTAGATATCAGTTTCGACTAGTGCTAG`, “fitted relative affinity” read 3.2 z-score.
Under “fitted relative affinity”, `TCAGCTCTCCGGGGTCTGACTGTGCTA` is recorded as -0.347 z-score.
`GACGGTATCGTCTTTCGGGACGTGCTA`: “fitted relative affinity” 1.31 z-score.

Block 2 — technique: protein-binding microarray; form: double-stranded DNA, one strand shown; sample: in vitro; concentration: 0.8 µM; setting: whole 60-bp probe, no competitor; direction: higher = stronger binding
Target: Centromere-binding protein 1, full length, N-terminal tag (CBF1, Saccharomyces cerevisiae, UniProt P17106, residues 1-351)
Sequence of UniProt P17106 (whole entry, looked up): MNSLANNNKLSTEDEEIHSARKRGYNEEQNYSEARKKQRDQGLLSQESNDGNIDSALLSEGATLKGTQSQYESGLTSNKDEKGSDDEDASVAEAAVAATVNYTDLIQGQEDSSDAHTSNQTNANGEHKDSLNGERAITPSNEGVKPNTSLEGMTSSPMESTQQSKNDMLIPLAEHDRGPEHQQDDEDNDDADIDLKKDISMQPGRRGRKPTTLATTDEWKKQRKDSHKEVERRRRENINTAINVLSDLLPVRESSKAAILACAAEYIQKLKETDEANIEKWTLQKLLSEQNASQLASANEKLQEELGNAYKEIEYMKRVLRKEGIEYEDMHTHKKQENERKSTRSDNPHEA
`CTATTGCAACCCATGCTGATGTCTGAAGCGCTGTTCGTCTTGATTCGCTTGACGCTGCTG` has a fluorescence intensity of 534 a.u.
The fluorescence intensity of `GAATTCAGCTAACGTGATACAACAGGTCACCTTTAGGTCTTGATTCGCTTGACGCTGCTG` is reported as 1410 a.u.
For `CTAAAGGACGAACCCTAGGTGACCGCATTAGACTTCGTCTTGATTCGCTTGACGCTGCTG`, the fluorescence intensity was 496 a.u.
For `CTAATTTTGTTATTGTACGTGGGGCAGTTGACGTTCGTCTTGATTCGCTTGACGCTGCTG`, the fluorescence intensity was 572 a.u.
`CTAGAGAAGGACAAACATCAGGGACCCATACTTTTCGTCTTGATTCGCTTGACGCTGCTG` gave a fluorescence intensity of 517 a.u.
The fluorescence intensity of `GAAATTATCACTCATCACCATGAACATTCAGTATAGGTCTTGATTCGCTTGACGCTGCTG` is reported as 565 a.u.
The fluorescence intensity of `GAATCTAATTAAAGTAACGTGGGGACTCTTATTTAGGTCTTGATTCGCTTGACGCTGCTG` is reported as 709 a.u.
The fluorescence intensity of `GAAAGCTCTCCCCCCCACACGTGATAGCCTTTCTAGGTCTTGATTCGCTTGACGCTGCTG` is reported as 3070 a.u.

Further values, each from its own experiment
The remaining binding of `Nc1cnc(N2CCc3cc(S(=O)(=O)Nc4c(F)cc(Cl)cc4F)cc(N4CCCC4=O)c32)nc1` is reported as 100% (CHUK (Homo sapiens, UniProt O15111); cell-free assay, competition with immobilised ligand; 1 µM).
The logD of `CCC[C@H]1NC(=O)CSC[C@@H](C(=O)OCC)N(C)C(=O)[C@H](CC(C)C)NC(=O)[C@@H](C)N(C)C(=O)[C@@H](CC(C)C)NC(=O)[C@H](C)N(C)C(=O)[C@@H]2CCCN2C(=O)[C@@H](CC(C)C)NC(=O)CN(CCC)C1=O` is reported as 1.05 (hydrocarbon/water).

A few entries again (block 2):
`CTATTGCAACCCATGCTGATGTCTGAAGCGCTGTTCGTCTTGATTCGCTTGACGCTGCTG` has a fluorescence intensity of 534 a.u.
`CTAGAGAAGGACAAACATCAGGGACCCATACTTTTCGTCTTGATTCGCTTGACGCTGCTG` gave a fluorescence intensity of 517 a.u.
